Published values of several laboratories.
Parts stem from different laboratories: compare values within a part only. Substitutions count along the parent as printed.

Study 1 — target: CCNB3, cyclin fold, Cln2 fusion (human); technique: yeast growth competition, sequencing; medium: yeast; setting: weak parent motif; reference: not given; direction: higher = stronger binding
Parent: MICAL3 docking peptide (human); LQLRRQLSFSEDS; partner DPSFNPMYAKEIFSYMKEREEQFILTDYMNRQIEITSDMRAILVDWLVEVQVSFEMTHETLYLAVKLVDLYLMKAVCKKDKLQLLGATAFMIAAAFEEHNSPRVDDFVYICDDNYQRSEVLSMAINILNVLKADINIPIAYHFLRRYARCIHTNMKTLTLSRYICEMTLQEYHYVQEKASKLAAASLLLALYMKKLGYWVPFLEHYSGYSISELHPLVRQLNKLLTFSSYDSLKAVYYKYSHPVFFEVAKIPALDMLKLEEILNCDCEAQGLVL
Change	normalised enrichment score
LQLPRQLSFSEDS [R4P]	0.122
LQNRRQLSFSEDS [L3N]	-0.363
LQLRYQLSFSEDS [R5Y]	0.394
LQLRRQLSFSNDS [E11N]	0.41
LELRRQLSFSEDS [Q2E]	0.227
LQLRRQASFSEDS [L7A]	-0.0693
LKLRRQLSFSEDS [Q2K]	0.108
LQLIRQLSFSEDS [R4I]	0.111
LQLRKQLSFSEDS [R5K]	-0.0369
LQLRRLLSFSEDS [Q6L]	0.424
LQLRRMLSFSEDS [Q6M]	0.265
LQLRRQLSFNEDS [S10N]	0.147
LQLTRQLSFSEDS [R4T]	-0.0715

Study 2 — technique: protein binding microarray; form: double-stranded DNA, one strand shown; medium: in vitro; concentration: not given; reference: not given; direction: higher = stronger binding
Target: Histone acetyltransferase KAT6A, winged helix 2, GST fusion (KAT6A, Homo sapiens, UniProt Q92794, residues 85-181)
Setting: 8-mer, flanks averaged, mean of 2 arrays, mostly near background
Target sequence (chain): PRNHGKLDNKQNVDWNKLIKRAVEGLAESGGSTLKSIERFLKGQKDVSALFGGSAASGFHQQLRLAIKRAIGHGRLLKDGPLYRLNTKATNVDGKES
Sequence	E-score
CAGAAGAC	-0.0684
ATGCCCAC	0.0796
ATGCTGGG	0.108
GCGCAGCA	0.0142
ACTTTCTA	-0.067
AAACTTTC	0.0411
ATTCCCAA	0.037
AGGACCGC	0.0977
AACGCTAT	-0.226
GTCCACGA	-0.0126
GAGACCCC	-0.129
GGGAGACA	0.155
GATTTGCC	0.113
GAATCATC	-0.0235
CTATCTAA	-0.15
GCGTCGTA	0.0377
TCTTACCA	-0.0676

Study 3 — technique: RNA Bind-n-Seq; form: RNA; medium: in vitro; concentration: 365 nM; reference: no-protein control; direction: higher = stronger binding
Target: RNA binding protein fox-1 homolog 2, RRM domain, GST-SBP tag (RBFOX2, Homo sapiens, UniProt O43251-10, residues 100-194)
Setting: natural RNA segment, single round, ends assumed
All sequences stand within: GGGAGUUCUACAGUCCGACGAUC … UGGAAUUCUCGGGUGCCAA
Target sequence (chain): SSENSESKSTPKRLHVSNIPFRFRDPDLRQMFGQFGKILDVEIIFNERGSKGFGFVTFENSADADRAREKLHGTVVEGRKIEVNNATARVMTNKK
Sequence	RBNS enrichment (R)
CCAGUCCCAACACCUGUCCUGUGUCUCAGGGUGGUCCUAGCUUCUCCUUAGGCAGCCAGGAAUUGGAACCCCCAUGCCCGCAGCACGUUUUUCUUAUGAUCAGGGAGUGU	2.31
CCUGUUGUACCAGUCUGACCAGUGUUUGGAAUGUUCAGACAUAAUCUCCUGUGUGAAGCUCAAGGUCUUAGGAGGAUUUUGGAUUUUGUGAAGAGAUGGACAGUCUCAUC	0.763
CUGUGUAAUUCAUUUUACAAUUUCAAAUUGUUCUGGUGCCAUAAAGUAUACAGACUACUUUAAAGAUUUCCAAAUCCCCUAAUUUACCCCACAACAGCAUGUAAUUUUAG	3.79
AAAAGGUAAGCACAUUUAGAAUUUUGUUCUUGACAGUUAACUGACUAAUCUUACUUCCACAAAAUAUGUGAAUUUGCUGCUUCUGAGAGGCAAUGUGAAAGAGGGAGUAU	0.607
CUACUUUAACAACUGUCAGAGAAACGUGAUGGGGGUAAGGAGGUACUUUUUAAAAUCGUUCAUAGACUUCUGUAAAAUGCAAGAUAAAUUAAAGUUAUUAUAACAGUAAU	1.53
GAACUCUGAUGAGGAGAUGCUGGUAAAUUAUCAUUUUUUAAAUUGCUGGUGAGUCUGACACUUGGUGAGUUUUCAGCCAGUUUGUUAAACUUUUAAUUAAGUUUUGUUUA	0.811
ACUUCCCAGGCAAAUAGGCCCCUUUGAGGCUCCUGAGUGCCCUCAGAUGGUCAAAACCCAGUUUUCCCUCUGGGAGCCUAAACCAGGCUGCAUCGGAGGCCAGGACCCGG	0.198
CCACCGUGUCCCUGUUCUGCGCUAGCACUGCCUCCUGCUGCAGCCCCUGACUUGACCUCAGGGCCUGGGGAGGGAAGCACCAUACCAGGGCCAGGAGCUCCAACUCCGAC	0.263

Mixed results
Molecule	target	assay	system	conditions	how to read	measurement	result
PhoQ, residues 284 288 289 292 302 303 MLMVEA	PhoP, residues 12 14 15 18 19 TQALL (Escherichia coli, UniProt P23836)	Sort-seq, refers to: YFP reporter	E. coli	PhoQ-PhoP variant library, added: 10 µM Mg2+	reference: high Mg2+ state, higher = stronger signaling	fold induction	11.4

Some of these lines once more (study 2):
Sequence	E-score
GTCCACGA	-0.0126
TCTTACCA	-0.0676
GATTTGCC	0.113
GGGAGACA	0.155
GCGCAGCA	0.0142
ATGCTGGG	0.108
